Results pooled from the literature.
Every numbered part comes from another study and shows a few of its results, in no order. Changes are numbered by the printed parent chain.

Set 1 — technique: RNA Bind-n-Seq; molecule type: RNA; medium: in vitro; tested at: 365 nM; baseline: no-protein control; direction: higher = stronger binding; measurement: RBNS enrichment (R)
Target: RNA binding protein fox-1 homolog 2, RRM domain, GST-SBP tag (RBFOX2, Homo sapiens, UniProt O43251-10, residues 100-194)
Setting: natural RNA segment, single round, ends assumed
Constant ends, left off below: GGGAGUUCUACAGUCCGACGAUC … UGGAAUUCUCGGGUGCCAA
Residues (chain): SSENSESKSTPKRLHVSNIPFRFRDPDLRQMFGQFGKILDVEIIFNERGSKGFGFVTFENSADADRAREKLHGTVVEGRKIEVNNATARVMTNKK
ACAGUGGCUGCUGGGUUACUGUCCCAUGAGACUGUACUGGACGGGUGCAGCCAGAGUGGCGCAGUGCACUAAGGUGCCGGCCGCCCUGCCUGCCCGGUGCCUCCCACUGA: 0.254
UUUCCAGAAUAGUGUUUAGCUCACCUAGGGGGAUAUGUUUGUAUACACAUUUGCAUAUACCCACAUGGGGACAUAAGCUAAUUUUUUUACAGGACACAGAAUUCUGUUCA: 0.377
CAAUCCUGACUCUGGCUAUUCGCUUCCCACCCUCUCCUUUCACUGUGAUGUGUUCCAGGUUUAGCCUAGGGUCCAUUCUUGUCACUGUUUCUUACUGUGUAGAGUACCUU: 0.321
GAGGAGGAUGUUACUUCAUUUUAUAAAGAGGAAGGGGCCUGGGAGACUUGGGAAAAUGUUUCUGGAGAGGCUUUCAGAGUGGCUGGAAAAGGCUCUUGUUGCUGUAAUUU: 1.18
GAAUAUUUCCAACAGUGUUUUUUGCAAAUUAGAGCAGGACAAACUUUUAUGUUUACAGGGCACGUCUGUUGUAAUGCAAAGCAUAUUUGGCAAGCAGUUCAUCACCAGGA: 0.285
CCAGCCUGCUGUCUACCAAAGGACUGUUCCCAGACCCUGUCUUUACCCUUCCCUUUUAAAGUCCCUGAAUUUUACAGUCUGCUUUCAAAUGAAAUAUUGUACUUUAAUUC: 1.11
AGGAGAGAAGAAAGUGUAGAUAGUUAAAAGACUGCAGCUGCUGAAGUUCUGAGCCGGGCAAGUCGAGAGGGCUGUUGGACAGCUGCUUGUGGGCCCGGAGUAAUCAGGCA: 0.621
AAAUUUGUUUUAUGCAUGAGUUAAUACCACUGGCUCAGCAAAUACAAGUUAGUUUGCUUUAAGCAGGUAACUUUUUUUGUAAUGGAAGAAAUGCACUACAAAGUUAAGAC: 0.42

Set 2 — target: CCNE1, cyclin fold, Cln2 fusion (human); technique: yeast growth competition, sequencing; medium: yeast; setting: strong parent motif; baseline: not given; direction: higher = stronger binding; measurement: normalised enrichment score
Starting sequence: E2F1 docking peptide (human); PPVKRRLDLETDH
D8G: 1.03
E10S: 1.27
K4P: 0.0785
T11L: 3.91
D12S: 1.84
P1M: 1.96
D8S: 1.97
L7P: 0.339
P1H: 1.68
D12E: 1.91
P1C: 1.3
H13M: 2.24
H13G: 2.17
L7V: -0.6

Set 3 — technique: RNA Bind-n-Seq; molecule type: RNA; medium: in vitro; tested at: 100 nM; baseline: input RNA pool; direction: higher = stronger binding; measurement: bound/input enrichment
Target: RING finger protein unkempt homolog, zinc fingers 1-6, SBP tag (UNK, Homo sapiens, UniProt Q9C0B0, residues 30-357)
UniProt Q9C0B0, sequence (30-357, looked up): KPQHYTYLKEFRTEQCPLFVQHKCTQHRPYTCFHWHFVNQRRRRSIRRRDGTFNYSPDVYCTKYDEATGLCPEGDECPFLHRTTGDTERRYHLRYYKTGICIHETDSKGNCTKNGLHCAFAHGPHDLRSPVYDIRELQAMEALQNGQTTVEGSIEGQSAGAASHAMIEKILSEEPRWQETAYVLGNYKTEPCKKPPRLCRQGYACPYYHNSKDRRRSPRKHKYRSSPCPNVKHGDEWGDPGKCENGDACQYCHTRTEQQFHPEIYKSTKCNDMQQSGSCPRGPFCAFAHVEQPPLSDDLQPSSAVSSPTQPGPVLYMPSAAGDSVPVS
Setting: RNA with constant flanks, vertebrate orthologous sites, ends assumed
Constant ends, left off below: GGGAGUUCUACAGUCCGACGAUC … CAACAGAGGAUUGAGCAUCA
AGGGAUGGCCCCCAACCCCACCUCUGUUUAUUCUGUAAACUACAACCUAUAAAUAACCUUUAGCAUUCCUAUUGUAACAAAAUUAAUUUUUAUGAAAUAAAUUAUAUUUCCUAGUCUGAU: 1.06 ratio
GUGUCUUGGUUUGGGGUAGAGGGGAGGGAGGGGCAGGACUGUGGAAUCUCUAGAGUGUAUUGGUAGAUAAGGGUGCACAGUUAGUUGUAAGUGGGCCUUUAUGUUAAAAACCUCGGGGGG: 1.11 ratio
GUGUUGUGUACAGGGCAUUCUCUGUACUAGUUUGUUGUGGUUAUAAAACAUUUAGCAAAACAGCCUACGUUUGUAUUUAUUUUCUGUUCCAUCCUUUGUGCCCCAUGUGUUUUUCUUUUA: 0.869 ratio
UCAACUCAGGUUUUAUUUAUUUUGAAAUUAUCAAUUGUAUAAGUCUAACUUAUUGACAAACAUGAUGGGAUUUAAUUUUUUUUAUUGUUGAAACCUUAACAGGCAAUUCAUAUUCCCAGC: 0.295 ratio
GGGCUGUGUAGAGUAGGGCCCUGUUCUCCUUAGGAUGUUGCUUCUUGAUUUUUUUUUUUUUAGGGGUGGGUCAGGGUUGUGACACACCAGCCCAGGUGAGAGCUGCUGCGGGUCACCUCA: 1.53 ratio
UAAUUCAAUGGUUGAGGGUUCAGAACUCAAAAAGGUUCGCUCCAACUCUAGGAUUUAUCAUAGGUACUUUUUACUGGAUGCUGACAUGCAGAGCCUAAGGUGGGAGCCAUCUAAGAAGGA: 0.305 ratio
AAGAUGGUGGUUGUACAUUAUUUCAUUUAGAAAAUAUAAAAAUUCAUUUUGUUUUGAACCUAGGUAUUAAACUGGAAUAGCUCUUAACAUCCCUGAGAAUGGGGUGGUUGUGCCCUGACC: 1.25 ratio
AAUAUAAGGACUCUUGCAGCCUUAGAUGUUAUAAAAAUAUAUCUGAAUUGUAAGAGUUGCUUAGCAGUUUUUUUUUUUAAGCACUUGUUUUGGGUACAAGGCAUUUCUGAUAUAGUUUUA: 0.777 ratio

Set 4 — technique: DHFR PCA, deep sequencing; medium: yeast; added: (+)-ABA 0.11 µM; baseline: wild-type fitted maximum; direction: higher = stronger binding; measurement: relative binding score
Target: ABI1, truncated, D143A, DHFR fusion (Arabidopsis thaliana)
Setting: methotrexate growth selection, single substitutions
Starting sequence: PYL1, truncated, DHFR fusion (Arabidopsis thaliana); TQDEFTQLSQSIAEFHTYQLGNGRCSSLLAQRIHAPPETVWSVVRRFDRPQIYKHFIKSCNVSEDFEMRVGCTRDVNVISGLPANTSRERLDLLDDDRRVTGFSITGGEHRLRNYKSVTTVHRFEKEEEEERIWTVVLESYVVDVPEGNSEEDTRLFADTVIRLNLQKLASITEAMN; partner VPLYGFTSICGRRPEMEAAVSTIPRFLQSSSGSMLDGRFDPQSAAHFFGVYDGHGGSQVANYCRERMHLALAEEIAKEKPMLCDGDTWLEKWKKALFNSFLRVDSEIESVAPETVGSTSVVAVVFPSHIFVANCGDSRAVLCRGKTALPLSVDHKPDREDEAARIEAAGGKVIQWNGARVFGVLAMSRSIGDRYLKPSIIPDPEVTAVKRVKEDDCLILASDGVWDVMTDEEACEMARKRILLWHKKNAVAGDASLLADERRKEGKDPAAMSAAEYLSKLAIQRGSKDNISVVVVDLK
E14Y: 0.123%
V137L: -7.07%
P50N: 6.45%
E4H: 14.7%
V44Q: -2.37%
D95W: -11%
D95Y: -7.26%
V145T: 2.05%
S150A: 10.3%
R155H: -3.33%
T173F: -6.26%
E125A: 43.3%
L28D: -1.58%
H110W: 82%
G81D: 4.23%
R46S: 4.87%
N149C: 65.9%
V142P: -5.34%
T160Q: -4.68%
T160N: 1.39%
W41V: -7.34%
V137M: -7.51%
I105Q: -3.49%
A158M: 15.5%
S150Q: 12.8%
